Assay results of several laboratories.
Protocols differ between the studies behind these lines. ± gives the spread as reported.

SMILES	target or system	assay	system	conditions	endpoint	result
O=C(Cc1ccc2ccccc2c1)N[C@H](Cc1c[nH]c2ccccc12)C(=O)N[C@H](Cc1c[nH]c2ccccc12)C(=O)N[C@H](Cc1ccc(OP(=O)(O)O)cc1)C(=O)O	HepG2	MTT		400 µM, 3 days	viability	~60%
CC[C@H](C)[C@H](NC(=O)[C@H](CCC(N)=O)NC(=O)[C@@H](NC(=O)[C@H](CO)NC(=O)CNC(=O)CNC(=O)CNC(=O)[C@@H]1CCCN1C(=O)[C@@H](NC(=O)[C@H](Cc1c[nH]cn1)NC(=O)[C@H](CCCCN)NC(=O)[C@H](CCCCN)NC(=O)CNC(=O)CNC(=O)CNC(=O)[C@@H](N)CSC1CC(=O)N(c2ccc3c(c2)C(=O)OC32c3ccc(N(C)C)cc3Oc3cc(N(C)C)ccc32)C1=O)C(C)C)C(C)C)C(=O)N[C@H](C(=O)N[C@@H](Cc1ccc(O)cc1)C(=O)N[C@@H](CCCCN)C(=O)N1CCC[C@H]1C(=O)N[C@H](C(=O)N[C@@H](CC(=O)O)C(=O)N[C@@H](CC(C)C)C(=O)O)C(C)C)C(C)C (stereo partly drawn)	HepG2			10 µM, 72 h	cytotoxicity	not toxic
O=C1C(O)=C(Nc2ccc(F)cc2)C(=O)c2ccccc21	HepG2	cell growth or viability, MTT		72 h	CC50	140 µM
C=C1CCC2C(C)(CO)C(O)CCC2(C)C1CC(SC(=S)N1CCN(Cc2cc(F)c(F)cc2F)CC1)C1=CCOC1=O (stereo not drawn)	HepG2	MTT		24 h	CC50	42.3 ± 1.16 µM
CC[C@H](C)[C@H](NC(=O)[C@H](C)NC(=O)[C@@H](NC(=O)[C@H](CC(=O)O)NC(=O)[C@H](CCCCN)NC(=O)[C@H](CO)NC(=O)[C@@H](NC(=O)[C@H](CC(N)=O)NC(=O)[C@H](C)NC(=O)[C@@H](NC(=O)[C@H](CCC(=O)O)NC(=O)[C@H](CCCCN)NC(=O)[C@@H](NC(=O)[C@@H](NC(=O)[C@H](Cc1c[nH]cn1)NC(=O)[C@H](CCCCN)NC(=O)[C@@H](NC(=O)[C@H](CCCCN)NC(=O)[C@H](CCCCN)NC(=O)[C@@H](NC(=O)[C@H](CC(C)C)NC(=O)[C@H](CCCCN)NC(=O)[C@H](CC(N)=O)NC(=O)[C@H](Cc1ccccc1)NC(=O)[C@H](CCCNC(=N)N)NC(=O)[C@H](CCCCN)NC(=O)[C@H](CCCNC(=N)N)NC(=O)[C@H](Cc1ccccc1)NC(=O)CN)C(C)C)C(C)C)[C@@H](C)O)[C@@H](C)CC)[C@@H](C)O)C(C)C)C(C)C)C(=O)N[C@H](C(=O)N[C@@H](C)C(=O)NCC(=O)N[C@@H](CO)C(=O)NCC(=O)N[C@H](C(=O)N[C@@H](C)C(=O)N[C@H](C(=O)NCC(=O)N[C@@H](C)C(=O)N[C@@H](C)C(=O)N[C@@H](CCSC)C(N)=O)C(C)C)C(C)C)C(C)C	HepG2	cytotoxicity, measured: intracellular ATP			no-observed-effect concentration	433 mg/L
O=C1C(O)=C(CN2CCNCC2)C(=O)c2ccccc21	HepG2	MTT	10% FCS	24 h	median lethal concentration	2500 ± 547 µM
Cc1ccnc(Nc2c3c(nc4ccccc24)CCC(C)C3)c1 (stereo not drawn)	HepG2	MTT		50 µM, 24 h, 10% FBS	inhibition	4.88 ± 0.27%
Cc1cc(O)c2c(C(=O)[O-])[n+]3n(c2c1)CCCC3	HepG2	cell growth or viability, CCK-8		50 µM, 24 h	viability	68.4%
CC1CCc2nc3ccccc3c(Nc3ccc4ccccc4n3)c2C1 (stereo not drawn)	HepG2	MTT		50 µM, 24 h, 10% FBS	inhibition	77.3 ± 2.53%
O=C(CCNC(=O)c1ccc(OC(F)(F)F)cc1)N[C@@H]1CCCc2ccccc21	HepG2	cell growth or viability, MTT		72 h	CC50	16 µM
CC(=O)N[C@@H](CC(=O)O)C(=O)N[C@@H](CCC(=O)O)C(=O)N[C@H](C(=O)N[C@@H](CC(=O)O)C(=O)NCC(=O)NCC(=O)NCC(=O)NCCNC(=O)OCC1c2ccccc2-c2ccccc21)C(C)C	HepG2			200 µM, 2 h, 37 °C	unmetabolized fraction	51.3%
COc1cc(C(=O)NCCOCCOCCOCCNC(=O)c2ccc([18F])nc2)ccc1NC(=O)C1NC(CC(C)(C)C)C(C#N)(c2ccc(Cl)cc2F)C1c1cccc(Cl)c1F (stereo not drawn)	HepG2 tumour model		host not given, liver	2 h, tumour-bearing	tracer uptake	2.14 %ID/g
O=C1C(O)=C(Nc2ccc(Cl)cc2)C(=O)c2ccccc21	HepG2	cell growth or viability, MTT		72 h	CC50	320 µM
Cc1ccc(Nc2c3c(nc4ccccc24)CCCC3)cc1	HepG2	MTT		50 µM, 24 h, 10% FBS	inhibition	59.6 ± 2.44%
CC(=O)N[C@@H](CC(=O)O)C(=O)N[C@@H](CCC(=O)O)C(=O)N[C@@H](CC(=O)O)C(=O)N[C@H](C(=O)NCC(=O)NCC(=O)NCC(=O)NCCNC(=O)OCC1c2ccccc2-c2ccccc21)C(C)C	HepG2			200 µM, 2 h, 37 °C, 10% FBS	cellular uptake	0.27 fmol/cell
Cc1ccnc(Nc2c3c(nc4ccccc24)CCCC3)c1	HepG2	MTT		50 µM, 24 h, 10% FBS	inhibition	10.4 ± 0.24%
CC(C)=CCC/C(C)=C/CNCCOC1C2CC3CC(C2)CC1C3 (stereo not drawn)	HepG2	cell growth or viability			CC50	1 µg/mL
COc1ccc2[nH]cc(CCNS(=O)(=O)CCc3cn(-c4cnc5ccccc5c4)nn3)c2c1	HepG2	MTT		50 µM	viability	71%
O=C1C(O)=C(CNC2CCCC2)C(=O)c2ccccc21	HepG2	MTT	10% FCS	24 h	median lethal concentration	≥ 3690 µM
Cc1cccnc1Nc1c2c(nc3ccccc13)CCCC2	HepG2	MTT		50 µM, 24 h, 10% FBS	inhibition	2.51 ± 0.11%
O=C1C(O)=C(CN2CC3CCC2CC3)C(=O)c2ccccc21	HepG2	MTT	10% FCS	24 h	median lethal concentration	≥ 3360 µM
Cc1ccnc(Nc2c3c(nc4ccc(Cl)cc24)CCCC3)c1	HepG2	MTT		50 µM, 24 h, 10% FBS	inhibition	-22.9 ± 0.74%
O=C1C(O)=C(Nc2cccc(C(F)(F)F)c2)C(=O)c2ccccc21	HepG2	cell growth or viability, MTT		72 h	CC50	178 µM
COc1ccc(Nc2c3c(nc4ccccc24)CCCC3)cc1	HepG2	MTT		50 µM, 24 h, 10% FBS	inhibition	-31.5 ± 0.45%
N=C(N)NCCC[C@H](NC(=O)[C@@H]1CCCN1C(=O)[C@H](CC(N)=O)NC(=O)[C@H](Cc1ccccc1)NC(=O)[C@H](Cc1c[nH]cn1)NC(=O)[C@H](Cc1ccccc1)NC(=O)[C@H](Cc1ccccc1)NC(=O)Cc1ccc2ccccc2c1)C(=O)O	HepG2		cell lysate	200 µM, 1 h	remaining peptide	33%
COc1ccnc(Nc2c3c(nc4ccc(Cl)cc24)CCCC3)c1	HepG2	MTT		50 µM, 24 h, 10% FBS	inhibition	-7.85 ± 0.36%
NNCC1=C(O)C(=O)c2ccccc2C1=O	HepG2	MTT	10% FCS	24 h	median lethal concentration	331 ± 105 µM

A few entries again:
SMILES	target or system	assay	system	conditions	endpoint	result
Cc1ccnc(Nc2c3c(nc4ccccc24)CCCC3)c1	HepG2	MTT		50 µM, 24 h, 10% FBS	inhibition	10.4 ± 0.24%
O=C(CCNC(=O)c1ccc(OC(F)(F)F)cc1)N[C@@H]1CCCc2ccccc21	HepG2	cell growth or viability, MTT		72 h	CC50	16 µM
Cc1ccnc(Nc2c3c(nc4ccccc24)CCC(C)C3)c1 (stereo not drawn)	HepG2	MTT		50 µM, 24 h, 10% FBS	inhibition	4.88 ± 0.27%
